Assay results from different studies.
Protocols differ between the studies behind these lines. ± gives the spread as reported.

| SMILES | cell line | test | test system | setting | scale | quantity | result |
| --- | --- | --- | --- | --- | --- | --- | --- |
| CCOc1cc(C(C)(C)C)ccc1C1=N[C@H](c2ccc(Cl)cc2)[C@H](c2ccc(Cl)cc2)N1C(=O)N1CCN(CC(=O)NCCOCCOCCOCCNC(=O)CN2CCN(C(=O)N3C(c4ccc(C(C)(C)C)cc4OCC)=N[C@H](c4ccc(Cl)cc4)[C@@H]3c3ccc(Cl)cc3)CC2=O)C(=O)C1 | A549 | cell growth, CCK-8 |  |  |  | IC50 | 11 ± 1.4 µM |
| CCCCCCCCCCCCCC[C@@H](O)[C@@H](O)[C@H](CO[C@H]1O[C@H](CO)[C@H](O)[C@H](O)[C@H]1O)NC(=O)CCCCCCCCCCc1ccc(F)cc1 | human Vα24+ NKT cells | agonist |  | 10 ng/mL, 24 h, together with: CD1d-transfected HeLa cells | reference: α-GalCer | IFN-γ/IL-4 ratio | 2.62 ± 0.18 |
| CC(=NN=c1[nH]c2cc(F)c(F)cc2n1C)c1ccc(F)cn1 | MCF7 | cell migration area |  | concentration not given | reference: untreated | inhibition | ~50% |
| COc1cccc2c1C(=O)N1CCc3c([nH]c4ccccc34)C1N2Cc1ccc(C(=O)NCCCC(=O)NO)cc1 (racemic) | HCT-116, MCF7, A549 cells | CCK-8 |  | concentration not given |  | antiproliferative activity | inactive |
| CN1CCN(c2ccc(-c3cccc(CN4CCN(CCNC(=O)CCCCCCCNc5cccc6c5C(=O)N(C5CCC(=O)NC5=O)C6=O)CC4)c3)cc2NC(=O)c2c[nH]c(=O)cc2C(F)(F)F)CC1 (stereo not drawn) | MV4;11 | GRO-seq |  | 0.5 µM, 4 d, unit not given | reference: DMSO | transcriptionally suppressed genes | 189 |
| Cc1ccc(NC(=O)c2cccc(C(F)(F)F)c2)cc1N1Cc2cnc(Nc3cnn(C)c3)nc2N(C)C1=O | Hep3B (FGFR4 overexpressing) | cell proliferation, CellTiter-Glo |  | 72 h |  | GI50 | 252 ± 160 nM |
| O=C(N/N=C/c1ccc(Sc2ncccn2)o1)c1cccc(Cl)c1 | D458 medulloblastoma | cell growth |  |  |  | GI50 | 54000 nM |
| CC(=O)N1CCN(c2ccc(Nc3ncc4c(n3)N(C)C(=O)N(c3cc(NC(=O)c5ccc(CN6CCC(N(C)C)C6)c(C(F)(F)F)c5)ccc3C)C4)cn2)CC1 (stereo not drawn) | Huh-7 (FGFR4 overexpressing) | cell proliferation, CellTiter-Glo |  | 72 h |  | GI50 | 6 nM |
| CCOC(=O)/C=C/CNCCCCN1c2ccccc2CCc2ccc(Cl)cc21 | B82L | immunoblot, refers to: phospho-AKT |  | 1 µM, 4 h, together with: EGF 100 ng/mL | reference: EGF alone | protein level | decreased |
| CCCCCCCCCCCCCC[C@@H](O)[C@@H](O)[C@H](CO[C@H]1O[C@H](CO)[C@H](O)[C@H](O)[C@H]1O)NC(=O)CCCCCc1ccccc1 | human Vα24+ NKT cells | agonist |  | 10 ng/mL, 24 h, together with: CD1d-transfected HeLa cells | reference: α-GalCer | IFN-γ/IL-4 ratio | 1.53 ± 0.15 |
| CCN1CCN(c2ccc(Nc3ncc4c(n3)N(C)C(=O)N(c3cc(NC(=O)c5cccc(C(F)(F)F)c5)ccc3C)C4)cn2)CC1 | HepG2 (FGFR4 overexpressing) | cell proliferation, CellTiter-Glo |  | 72 h |  | GI50 | 440 ± 120 nM |
| CCOc1ccc(S(=O)(=O)NC(=O)Cc2ccc(I)cc2)cc1Br | THP-1 | cGAMP level, refers to: cGAMP | cell lysate | 30 µM |  | inhibition | 27% |
| CCCCCCCCCCCCCCCCNNC(=O)c1ccc(N(C)C)cc1 | HEK293T | immunoblot |  | up to 50 µM, 6 h |  | α-tubulin acetylation | no effect |
| C=CC(=O)Nc1cccc(N(C(=O)OCc2ccc(F)cc2)c2ccnc(Nc3ccn(C)n3)n2)c1 | Ba/F3 wild-type HER2 | cell growth |  |  | above 10 µM not active | EC50 | 3.8 ± 0.74 nM |
| CC(=O)OC1CC[C@H]2C3=C(CC[C@]12C)[C@]1(C)c2c(coc2C3=O)[C@H](OC(C)=O)[C@@H]2O[C@@H]21 (stereo partly drawn) | MDA-MB-231 | PI flow cytometry |  | 10 µM |  | sub-G1 cells | 73.6% |
| C=CC(=O)N1CCC(c2cc(Nc3cc4n(n3)CCOC4)c3ncnn3c2)C1 (single isomer, unassigned) | TMD8 wild type | calcium flux, FLIPR |  | 1 h preincubation, together with: anti-IgM |  | maximum inhibition | 40.6% |
| O=C(NNC(=S)Nc1cccc(C(F)(F)F)c1)c1cccn1-c1ccc(F)cc1 | primary rat cortical neurons |  |  | concentration not given |  | reduction in total tau | 30% |
| CC[C@@H](C)[C@H](N)C(=O)N1Cc2ccc(F)cc2C1 | SET-2 | cell viability, CellTiter-Glo |  |  |  | IC50 | 0.02 µM |
| Cn1nc(-c2ccc(CC(=O)Nc3cc(C(C)(C)C)on3)cc2)c2c(N)ncnc21 | LC-2/ad (CCDC6-RET fusion) | cell viability |  |  |  | EC50 | 24 ± 20 nM |
| Nc1ccc2cc(N)ncc2c1 | LX-2 | qPCR, refers to: COL1A1 |  | concentration not given, together with: TGF-β1 |  | mRNA level | decreased |
| CCN1CCN(c2ccc(Nc3ncc4c(n3)N(C)C(=O)N(c3cc(NC(=O)c5cccc(C(F)(F)F)c5)ccc3C)C4)cc2)CC1 | Huh-7 (FGFR4 overexpressing) | cell proliferation, CellTiter-Glo |  | 72 h |  | GI50 | 25 ± 20 nM |
| CCCCCCCCCCCCCC[C@@H](O)[C@@H](O)[C@H](CO[C@H]1O[C@H](CO)[C@H](O)[C@H](O)[C@H]1O)NC(=O)CCCCCCCCCCc1ccc(C(F)(F)F)cc1 | human Vα24+ NKT cells | agonist |  | 10 ng/mL, 24 h, together with: CD1d-transfected HeLa cells | reference: α-GalCer | IFN-γ/IL-4 ratio | 1.89 ± 0.22 |
| Cc1ccc(NC(=O)c2ccc(CN3CCC(N(C)C)C3)c(C(F)(F)F)c2)cc1N1Cc2cnc(Nc3cnn(C)c3)nc2N(C)C1=O (stereo not drawn) | Hep3B (FGFR4 overexpressing) | cell proliferation, CellTiter-Glo |  | 72 h |  | GI50 | 94 ± 20 nM |
| O=C(N[C@H](Cc1ccccc1)C(=O)O)c1sc2cc(F)ccc2c1Cl | RAW264.7 | TNF-α production, ELISA |  | 10 µM, together with: poly(I:C) |  | inhibition | ~60% |
| CN(C)C(=O)Cn1cc(-c2ccc(-c3cncc4ccncc34)cc2)cn1 | human NK cells | flow cytometry |  | concentration not given, ADCC |  | CD107a level | no effect |
| CCCCCCCCCCCCCC[C@@H](O)[C@@H](O)[C@H](CO[C@H]1O[C@H](CO)[C@H](O)[C@H](O)[C@H]1O)NC(=O)CCCCCCCCCc1ccccc1 | human Vα24+ NKT cells | agonist, ELISA |  | 10 ng/mL, 24 h, unit not given, together with: CD1d-transfected HeLa cells | reference: α-GalCer | IL-4 secretion | 0.59 ± 0.15 |
| CCOc1ccccc1Nc1nnc(SCC(=O)Nc2cc(F)ccc2F)s1 | co-cultured human PBMCs |  | MucilAir airway epithelium | 10 µM, 48 h, together with: anti-CD3/CD28 |  | IFN-γ secretion | 421 ± 13 pg/mL |

Repeated from above:
| SMILES | cell line | test | test system | setting | scale | quantity | result |
| --- | --- | --- | --- | --- | --- | --- | --- |
| CCOc1cc(C(C)(C)C)ccc1C1=N[C@H](c2ccc(Cl)cc2)[C@H](c2ccc(Cl)cc2)N1C(=O)N1CCN(CC(=O)NCCOCCOCCOCCNC(=O)CN2CCN(C(=O)N3C(c4ccc(C(C)(C)C)cc4OCC)=N[C@H](c4ccc(Cl)cc4)[C@@H]3c3ccc(Cl)cc3)CC2=O)C(=O)C1 | A549 | cell growth, CCK-8 |  |  |  | IC50 | 11 ± 1.4 µM |
| Nc1ccc2cc(N)ncc2c1 | LX-2 | qPCR, refers to: COL1A1 |  | concentration not given, together with: TGF-β1 |  | mRNA level | decreased |
